Assay results from different studies.
Lines come from different studies, so protocols differ. Several values in a cell are separate wells, animals, samples, runs or records. Numbers after ± are the reported error.
T1: riboswitch RNA A38C; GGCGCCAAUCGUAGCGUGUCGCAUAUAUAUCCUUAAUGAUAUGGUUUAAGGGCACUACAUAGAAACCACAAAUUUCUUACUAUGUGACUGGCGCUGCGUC
T2: G-quadruplex DNA, parallel G-quadruplex; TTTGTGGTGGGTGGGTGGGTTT
Chain of UniProt P30531 (whole entry, looked up): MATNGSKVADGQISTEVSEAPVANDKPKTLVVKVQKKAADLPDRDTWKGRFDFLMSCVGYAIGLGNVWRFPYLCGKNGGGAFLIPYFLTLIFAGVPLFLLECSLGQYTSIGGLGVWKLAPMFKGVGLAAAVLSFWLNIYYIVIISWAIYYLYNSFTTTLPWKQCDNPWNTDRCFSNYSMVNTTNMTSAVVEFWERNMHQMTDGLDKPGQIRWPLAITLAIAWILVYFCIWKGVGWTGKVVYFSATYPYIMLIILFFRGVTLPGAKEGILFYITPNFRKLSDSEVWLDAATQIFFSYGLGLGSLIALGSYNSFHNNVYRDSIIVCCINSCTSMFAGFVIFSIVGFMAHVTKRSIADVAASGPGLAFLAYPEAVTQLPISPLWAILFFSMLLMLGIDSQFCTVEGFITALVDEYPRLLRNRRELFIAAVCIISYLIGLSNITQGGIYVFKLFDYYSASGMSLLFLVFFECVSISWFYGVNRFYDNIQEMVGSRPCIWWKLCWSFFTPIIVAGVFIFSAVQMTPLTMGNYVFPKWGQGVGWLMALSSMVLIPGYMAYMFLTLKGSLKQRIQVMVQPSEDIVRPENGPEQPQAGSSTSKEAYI
Chain of UniProt Q13148 (whole entry, looked up): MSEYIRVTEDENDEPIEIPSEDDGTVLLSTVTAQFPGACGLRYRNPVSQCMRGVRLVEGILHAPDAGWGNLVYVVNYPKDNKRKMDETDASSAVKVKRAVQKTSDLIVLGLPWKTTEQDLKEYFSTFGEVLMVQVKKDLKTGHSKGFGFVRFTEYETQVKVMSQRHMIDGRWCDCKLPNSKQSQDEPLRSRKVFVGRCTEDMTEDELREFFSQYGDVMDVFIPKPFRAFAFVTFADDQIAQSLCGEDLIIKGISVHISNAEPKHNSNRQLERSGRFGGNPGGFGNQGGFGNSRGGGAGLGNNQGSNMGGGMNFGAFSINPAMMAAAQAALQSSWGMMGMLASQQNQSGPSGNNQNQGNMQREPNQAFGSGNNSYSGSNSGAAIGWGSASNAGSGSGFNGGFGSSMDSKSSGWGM
Chain of UniProt Q9NYW5 (whole entry, looked up): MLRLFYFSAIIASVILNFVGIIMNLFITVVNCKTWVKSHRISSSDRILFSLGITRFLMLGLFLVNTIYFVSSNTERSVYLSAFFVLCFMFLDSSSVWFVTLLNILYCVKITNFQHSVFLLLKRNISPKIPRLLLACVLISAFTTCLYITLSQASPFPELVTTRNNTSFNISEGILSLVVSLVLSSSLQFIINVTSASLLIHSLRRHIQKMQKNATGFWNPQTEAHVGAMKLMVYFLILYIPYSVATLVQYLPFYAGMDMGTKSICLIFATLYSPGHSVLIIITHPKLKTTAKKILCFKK
Chain of UniProt P30968 (whole entry, looked up): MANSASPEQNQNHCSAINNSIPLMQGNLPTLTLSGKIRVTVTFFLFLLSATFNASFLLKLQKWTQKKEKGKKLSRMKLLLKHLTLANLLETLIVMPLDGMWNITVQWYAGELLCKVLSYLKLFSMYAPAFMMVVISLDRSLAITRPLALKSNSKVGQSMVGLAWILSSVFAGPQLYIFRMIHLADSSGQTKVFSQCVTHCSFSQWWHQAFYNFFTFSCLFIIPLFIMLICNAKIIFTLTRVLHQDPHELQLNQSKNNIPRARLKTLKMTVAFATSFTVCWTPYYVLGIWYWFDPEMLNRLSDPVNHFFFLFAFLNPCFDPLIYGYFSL
Chain of UniProt Q9HB29 (whole entry, looked up): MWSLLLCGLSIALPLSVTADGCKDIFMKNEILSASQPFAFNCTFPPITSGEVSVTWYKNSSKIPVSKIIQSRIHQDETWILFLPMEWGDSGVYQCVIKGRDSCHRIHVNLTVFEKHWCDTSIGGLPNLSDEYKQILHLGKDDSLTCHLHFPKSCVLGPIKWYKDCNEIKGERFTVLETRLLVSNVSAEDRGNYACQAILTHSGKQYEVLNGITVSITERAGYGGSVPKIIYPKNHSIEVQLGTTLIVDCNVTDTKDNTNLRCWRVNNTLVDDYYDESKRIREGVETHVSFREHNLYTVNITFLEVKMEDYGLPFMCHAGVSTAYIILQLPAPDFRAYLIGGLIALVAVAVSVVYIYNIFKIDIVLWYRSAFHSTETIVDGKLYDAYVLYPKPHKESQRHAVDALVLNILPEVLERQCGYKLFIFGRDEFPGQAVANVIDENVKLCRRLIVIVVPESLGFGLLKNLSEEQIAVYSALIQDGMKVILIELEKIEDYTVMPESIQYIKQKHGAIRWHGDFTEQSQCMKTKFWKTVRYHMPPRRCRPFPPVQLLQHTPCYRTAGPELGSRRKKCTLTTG
Chain of UniProt P55210 (whole entry, looked up): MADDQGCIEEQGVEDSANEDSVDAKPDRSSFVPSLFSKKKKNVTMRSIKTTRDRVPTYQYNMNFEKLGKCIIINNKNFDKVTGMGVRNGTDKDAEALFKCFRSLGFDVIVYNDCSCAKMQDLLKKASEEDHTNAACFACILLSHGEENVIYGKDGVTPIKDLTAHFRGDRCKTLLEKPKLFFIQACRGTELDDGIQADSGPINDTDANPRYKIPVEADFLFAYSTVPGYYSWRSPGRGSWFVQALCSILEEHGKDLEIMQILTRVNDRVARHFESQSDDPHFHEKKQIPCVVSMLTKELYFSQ
Chain of UniProt P19491 (whole entry, looked up): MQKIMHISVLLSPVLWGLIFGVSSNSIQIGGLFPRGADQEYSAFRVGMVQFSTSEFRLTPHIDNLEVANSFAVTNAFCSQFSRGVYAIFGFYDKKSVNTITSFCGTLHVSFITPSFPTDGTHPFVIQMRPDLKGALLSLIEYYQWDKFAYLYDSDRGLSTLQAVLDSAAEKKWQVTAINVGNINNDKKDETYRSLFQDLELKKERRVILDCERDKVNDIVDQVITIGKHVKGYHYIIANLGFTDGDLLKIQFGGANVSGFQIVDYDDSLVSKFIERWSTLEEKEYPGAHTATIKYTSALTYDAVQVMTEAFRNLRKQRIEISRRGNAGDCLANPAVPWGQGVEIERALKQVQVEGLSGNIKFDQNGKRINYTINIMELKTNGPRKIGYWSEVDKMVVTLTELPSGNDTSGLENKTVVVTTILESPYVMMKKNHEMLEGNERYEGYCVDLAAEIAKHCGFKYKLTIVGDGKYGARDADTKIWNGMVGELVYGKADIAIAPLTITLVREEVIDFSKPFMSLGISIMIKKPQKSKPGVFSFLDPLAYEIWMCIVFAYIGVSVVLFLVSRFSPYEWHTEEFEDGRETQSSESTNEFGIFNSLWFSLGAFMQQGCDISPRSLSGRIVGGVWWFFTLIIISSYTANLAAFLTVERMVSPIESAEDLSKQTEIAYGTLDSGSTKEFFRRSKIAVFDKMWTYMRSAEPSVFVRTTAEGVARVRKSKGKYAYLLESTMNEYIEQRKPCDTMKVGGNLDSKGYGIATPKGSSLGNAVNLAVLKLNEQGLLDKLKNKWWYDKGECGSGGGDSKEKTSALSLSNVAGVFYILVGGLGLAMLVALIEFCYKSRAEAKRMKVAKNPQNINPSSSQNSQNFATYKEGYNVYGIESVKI

For `Cc1ccc(C(=O)NC(C)c2cccc(-c3ccncc3)c2)cn1` (centres unmarked), “number of kinases hit” read 0 (human kinase panel; binding, KINOMEscan; 10000 nM, %Ctrl below 1).
`COC(=O)Cc1cc2c(cc1C(=O)c1cccc(I)c1)OCO2` — result for “deactivation time constant”: 2.7 ± 0.1 ms (Gria2 (Rattus norvegicus, UniProt P19491); glutamate-evoked current, whole-cell patch clamp; HEK-293T; concentration not given, weighted tau, 1 ms pulse, with: glutamate).
For `CC(C)(C#N)c1ccc(-c2cnc(Nc3cnccn3)nc2Cl)cc1`, “number of kinases hit” read 1 (human kinase panel; binding, KINOMEscan; 10000 nM, %Ctrl below 35).
`Cc1ccc2c(c1Br)C(O)(CC(=O)c1ccc3c(c1)OCO3)C(=O)N2` (centres unmarked) has a Hill slope of 0.92 (Uncharacterized protein (Trypanosoma brucei brucei, UniProt Q386Q8); inhibitor, coupled colorimetric; Trypanosoma brucei).
With `O=C1c2sc(-c3ccc(N4CCC(F)C4)nc3F)nc2CCN1c1cccnc1` (centres unmarked) the specific binding was 1.59 nM and 2.01 nM (TAR DNA-binding protein 43, aggregated (TARDBP, Homo sapiens, UniProt Q13148); radioligand binding; human, FTLD-TDP type B sarkosyl-insoluble extract; 37.19 nM).
For `CC(C)C[C@H](NC(=O)[C@@H](CCCCNC(=O)[C@@H](Cc1ccccc1)NC(=O)CCCCCCCNC(=O)CN1CCN(CC(=O)O)CCN(CC(=O)O)CCN(CC(=O)O)CC1)NC(=O)[C@H](Cc1ccc(O)cc1)NC(=O)[C@H](CO)NC(=O)[C@H](Cc1c[nH]c2ccccc12)NC(=O)[C@H](Cc1c[nH]cn1)NC(=O)[C@@H]1CCC(=O)N1)C(=O)N[C@@H](CCCNC(=N)N)C(=O)N1CCC[C@H]1C(=O)NCC(N)=O` [indium-111 labelled], “specific binding blocked” read 79% (GNRHR (Homo sapiens, UniProt P30968); radioligand binding; concentration not given, 3 h, 25 °C, with: 1 µM unlabelled competitor).
`Nc1nc2c(ncn2[C@H]2C[C@H](O)[C@@H](CO)O2)c(=O)[nH]1` — result for binding: “binds” (T1, riboswitch RNA A38C; fluorescence; 5 µM).
For `N#Cc1cnc2sc(C(=O)O)cc2c1N1CCc2[nH]nc(C(=O)N[C@@H](CC(=O)NCCOCCN3CCOCC3)c3cccc(Br)c3)c2C1`, the remaining activity was 101% (Interleukin-1 receptor-like 2 (IL1RL2, Homo sapiens, UniProt Q9HB29); SEAP reporter gene, antagonist; HEK-Blue IL-36R cells; 11.11 µM, 6 h, with: IL-36β 0.003 ng/mL; reference: untreated).
`Nc1nc2nccnc2c(=O)[nH]1` has a Km of 21.3 ± 4 µM (lumazine dehydrogenase, Cupriavidus sp. LA-1; pH 7.5).
For `CC[C@H](NC(=O)[C@H](CC(C)C)NC(C)=O)C(=O)N[C@@H](CCC1CCCCC1)C(=O)N[C@@H](CC(=O)O)C(=O)COC(=O)c1c(C)cccc1C`, the kinact/KI was 11200 M⁻¹ s⁻¹ (Caspase-7 (CASP7, Homo sapiens, UniProt P55210); enzyme activity, inhibitor).
For `COc1ccc(C(OCCN2CCCC(C(=O)O)C2)(c2ccc(OC)cc2)c2ccc(OC)cc2)cc1` (centres unmarked), the [3H]-GABA uptake was 792 a.u. and 386 a.u. and 1450 a.u. and 1200 a.u. and 356 a.u. and 590 a.u. and 756 a.u. and 449 a.u. (SLC6A1 (Homo sapiens, UniProt P30531); GABA transport, inhibitor, radioligand uptake; HEK293F transfected; 100 µM, 15 min pre, 45 min uptake, room temperature, with: [3H]-GABA 30 nM, GABA 25 µM; higher = more uptake).
For `C/C(=C/CC[C@@H](C)[C@H]1CC[C@@]2(C)C3=C([C@@H](O[C@@H]4O[C@H](CO)[C@@H](O)[C@H](O)[C@H]4O)C[C@]12C)[C@@]1(C)CCC(=O)C(C)(C)[C@@H]1CC3)C(=O)O`, the threshold concentration was 1 µM (TAS2R4 (Homo sapiens, UniProt Q9NYW5); agonist, calcium mobilisation; HEK cells with Galpha16gust44; pH 7.4).
For `O=C(CN1CCCCC1)Nc1ccc2[nH]c(-c3cccc(-c4nc5cc(NC(=O)CN6CCCCC6)ccc5[nH]4)n3)nc2c1`, the Kd was 4.52 µM (T2, G-quadruplex DNA, parallel G-quadruplex; BLI; parallel G4, read off a plot).
`Cc1ccccc1-n1nc(C(=O)Nc2cccc(C(N)=O)c2)cc1-c1cccnc1` has an inhibition of 57% (Genome polyprotein, NS2B-NS3 protease (dengue virus type 2, UniProt P29990); reporter gene; HeLa; 12.5 µM).

Repeated from above:
For `CC(C)(C#N)c1ccc(-c2cnc(Nc3cnccn3)nc2Cl)cc1`, “number of kinases hit” read 1 (human kinase panel; binding, KINOMEscan; 10000 nM, %Ctrl below 35).
`Cc1ccc2c(c1Br)C(O)(CC(=O)c1ccc3c(c1)OCO3)C(=O)N2` (centres unmarked) has a Hill slope of 0.92 (Uncharacterized protein (Trypanosoma brucei brucei, UniProt Q386Q8); inhibitor, coupled colorimetric; Trypanosoma brucei).
